Measurements from different studies.
A part holds a random share of what one study measured. Values joined by “and” are separate records of one study, mostly repeats; a detail may differ.

Series 1 — effect on: binding; technique: radioligand binding; concentration: 10 µM; measurement: inhibition
Target: Delta-type opioid receptor (OPRD1, Homo sapiens, UniProt P41143)
UniProt P41143, sequence (whole entry, looked up): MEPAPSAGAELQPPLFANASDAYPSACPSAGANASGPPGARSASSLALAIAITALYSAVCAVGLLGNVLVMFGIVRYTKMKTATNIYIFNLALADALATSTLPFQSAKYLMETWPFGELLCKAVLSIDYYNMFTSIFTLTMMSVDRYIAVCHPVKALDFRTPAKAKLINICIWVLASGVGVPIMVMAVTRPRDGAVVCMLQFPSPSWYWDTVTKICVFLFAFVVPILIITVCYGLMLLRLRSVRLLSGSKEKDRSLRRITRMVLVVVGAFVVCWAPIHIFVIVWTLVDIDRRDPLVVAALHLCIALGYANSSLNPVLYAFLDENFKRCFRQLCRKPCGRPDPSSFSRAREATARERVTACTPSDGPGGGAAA
COCCc1ccc(-c2c(C)nc3c(N4CCOCC4)ccnn23)cn1: 7.84%
CS(=O)(=O)NCC[C@H](NC(=O)c1cncc2c1cnn2-c1ccc(F)cc1)c1ccnc(S(C)(=O)=O)c1: -2.19%
CCOC(=O)c1cc2cc(-c3cc(C(=O)NCc4ccc(C(=O)O)cc4)nn3C)ccc2[nH]1: -9.42%
C[C@H](NC(=O)c1cnc2n1[C@](C)(Cc1ccc(C#N)cc1)C(=O)N2c1cc(Cl)c(F)c(Cl)c1)C(=O)NC1(c2ccccn2)CC1: -0.33%
C[C@@H]1CN(c2cc(-c3nn(C)c4ccc(OC5(C)CC5)cc34)ncn2)C[C@H](C)O1: 23.3%
Cc1cc(-n2nc(Cc3cc(F)cc(C(F)(F)F)c3)nc2C)ccc1C(N)=O: -1.45%
CN(C)C(=O)Cn1cc(-c2nc([C@@](C)(c3ccc(-c4cnc(N)nc4)cc3)C3CC3)no2)cn1: -7.13%
CC1=C(C#N)[C@@H](c2ccc3[nH]nc(C)c3c2)C(C#N)=C(c2ccc(Cl)cc2)N1: 33.4%
CN([C@@H]1CCc2c(CC(=O)O)c3cc(S(C)(=O)=O)ccc3n2C1)S(=O)(=O)c1ccc(F)cc1: 20%
Cc1cc(C)c(-n2ccn3nc(-c4cccnc4)cc23)cc1NC(=O)c1cc(C#N)cc(S(F)(F)(F)(F)F)c1: 18.7%
CNC(=O)c1ccc(Nc2ncc(C(F)(F)F)c(NCc3nccnc3N(C)S(C)(=O)=O)n2)cc1: -0.28%
CN1CCN(C(=O)C(C)(C)c2ccc(C(=O)Nc3cn4cc(-c5ccncc5)ccc4n3)cc2)CC1: 4.05%
CCOCCn1cc(C(=O)Nc2ccc(-n3nc(-c4cccnc4)cc3C(F)(F)F)cn2)ccc1=O: -6.39%
O=C(Nc1ccc(-n2nc(-c3cccnc3)cc2C(F)(F)F)cn1)c1ccc(-c2ccccc2)c(F)c1: 3.77%
COc1cc(-c2cn(C3CCc4ccccc4N(CC(F)(F)F)C3=O)nn2)ccc1-n1ccc(C)n1 (centres unmarked): 16.7%
O=C(Nc1cnc(Oc2ccc(F)cc2)nc1)N1CCc2ncccc2[C@@H]1c1ccc(F)cc1: -10.3%
COCc1nc2cnc3cc(-c4c(C)noc4C)c(OC[C@H]4CCNC4)cc3c2n1[C@H](C)c1ccccc1: 38.5%
O=C1c2ccc(Nc3ccc(F)cc3F)cc2CCc2ccc(OC[C@H](O)CO)cc21: 10.3%
CC(C)CC(=O)N1CCc2nc(-c3ccc(Br)cc3)nc(N(C)Cc3ccccc3)c2C1: 8.22%
Cc1nc(C2CCN(C(=O)c3ccc(OC(F)(F)F)cc3N)CC2)c2ncc(N3CCN(C)CC3)cc2n1: 4.34%
Cc1c(N2CCCC2)nc2ccc(Br)cc2c1C(=O)NC[C@H](CCC(=O)O)c1ccccc1Cl: 15.4%
CC(=O)Nc1c(F)cc(C(=O)N[C@H]2CC[C@H](O)CC2)cc1O[C@@H](C)c1ccccc1: 27.1%
Cc1c[nH]c2nccc(Oc3c(F)cc(Nc4cc(Cl)nc(N)n4)cc3F)c12: 7.96%
O=C(Nc1cccnn1)N1CC(CC=Cc2cncc(Oc3ccc(C(F)(F)F)cn3)n2)C1: -16.3%
O[C@]1(C(F)(F)F)CCCC[C@H]1Nc1ccc(F)cc1: 21.4%

Series 2 — technique: CCK-8; measurement: survival
Compound: CC(C)S(=O)(=O)c1ccc2nccc(Nc3ccc4sc(C5CCCC5)nc4c3)c2c1.Cl
L929 RIPK3-/- reexpressing RIPK3 K51A/R69H; 25 µM: 95% and 71.2% and 61.1% and 92.4% and 59.4%
L929 RIPK3-/- reexpressing RIPK3 K51A/R69H; 50 µM, with: zVAD: 63.9% and 64.2% and 40.9% and 61%
L929 RIPK3-/- reexpressing RIPK3 K51A; 3.125 µM: 95% and 93% and 94.2% and 96.6%
L929 RIPK3-/- reexpressing RIPK3 K51A/R69H; 3.125 µM: 97.8% and 96.1% and 96.9% and 98.4% and 93.6%
L929 RIPK3-/- reexpressing RIPK3 K51A/R69H; 12.5 µM: 98.8% and 92.3% and 94.2% and 84.4%
L929 RIPK3-/- reexpressing RIPK3 K51A; 6.25 µM: 94.4% and 94% and 96.7% and 96.2%
L929 RIPK3-/- reexpressing RIPK3 K51A; 50 µM, with: zVAD: 68.5% and 67.6% and 70.4% and 70.5% and 71%
L929 RIPK3-/- reexpressing RIPK3 K51A/R69H; 50 µM: 61.5% and 41.7% and 64.8% and 42.4%

Series 3 — cell line: HEK-293T-ACE2; concentration: concentration not given; baseline: vehicle; measurement: cell number
OCCN(CCO)c1nc(N2CCCCC2)c2nc(N(CCO)CCO)nc(N3CCCCC3)c2n1: 106%
CC(C)OC(=O)[C@H](C)N[P@](=O)(OC[C@H]1O[C@@H](n2ccc(=O)[nH]c2=O)[C@](C)(F)[C@@H]1O)Oc1ccccc1: 98.3%
C[C@]12CC[C@@H]3c4ccc(O)cc4CC[C@H]3[C@@H]1CC[C@@H]2OC(=O)CCC1CCCC1: 103%
[I-].[K+]: 103%
CC(=O)NO: 102%
NC(=O)CCC(N)C(=O)O (racemic): 101%
Cl.Cn1c(CCCC(=O)O)nc2cc(N(CCCl)CCCl)ccc21: 99%
Nc1cccc2c1CN(C1CCC(=O)NC1=O)C2=O (centres unmarked): 97.5%
CC(C)C[C@H](NC(=O)[C@H](Cc1ccccc1)NC(=O)c1cnccn1)B(O)O: 69.2%
O=C(O)CCCN1CCC(O[C@@H](c2ccc(Cl)cc2)c2ccccn2)CC1.O=S(=O)(O)c1ccccc1: 101%

Series 4 — action: inhibitor; concentration: 10 µM; baseline: control; measurement: remaining activity
Target: Diamine acetyltransferase 1 (Homo sapiens, UniProt P21673)
Construct (P21673 1-171): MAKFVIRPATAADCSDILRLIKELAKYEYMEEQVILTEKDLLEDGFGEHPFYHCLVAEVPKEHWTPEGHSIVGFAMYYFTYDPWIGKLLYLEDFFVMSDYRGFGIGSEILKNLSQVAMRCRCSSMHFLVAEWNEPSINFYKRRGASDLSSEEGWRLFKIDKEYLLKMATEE
O=C1C=CC(=O)c2c(O)cccc21: 80.1%
COc1cc2c3c(c1O)-c1ccccc1C[C@@H]3N(C)CC2: 120%
COP(=S)(OC)Oc1cc(Cl)c(Cl)cc1Cl: 108%
CCCCCCCCOC(=O)c1ccccc1C(=O)OCCCCCCCC: 96.8%
Oc1ccc(CCc2cc(O)cc(O)c2)cc1: 102%
COc1cc2occc2c2oc(=O)ccc12: 85.9%
COc1ccc2c(c[n+](C)c3c4cc5c(cc4ccc23)OCO5)c1OC: 100%

Repeated from above (series 3):
[I-].[K+]: 103%
CC(C)C[C@H](NC(=O)[C@H](Cc1ccccc1)NC(=O)c1cnccn1)B(O)O: 69.2%
CC(=O)NO: 102%
